Assay results from different studies.
Each numbered part is a random draw from the data of one study; scales do not carry over between parts.
Chain of UniProt Q9NWZ3 (whole entry, looked up): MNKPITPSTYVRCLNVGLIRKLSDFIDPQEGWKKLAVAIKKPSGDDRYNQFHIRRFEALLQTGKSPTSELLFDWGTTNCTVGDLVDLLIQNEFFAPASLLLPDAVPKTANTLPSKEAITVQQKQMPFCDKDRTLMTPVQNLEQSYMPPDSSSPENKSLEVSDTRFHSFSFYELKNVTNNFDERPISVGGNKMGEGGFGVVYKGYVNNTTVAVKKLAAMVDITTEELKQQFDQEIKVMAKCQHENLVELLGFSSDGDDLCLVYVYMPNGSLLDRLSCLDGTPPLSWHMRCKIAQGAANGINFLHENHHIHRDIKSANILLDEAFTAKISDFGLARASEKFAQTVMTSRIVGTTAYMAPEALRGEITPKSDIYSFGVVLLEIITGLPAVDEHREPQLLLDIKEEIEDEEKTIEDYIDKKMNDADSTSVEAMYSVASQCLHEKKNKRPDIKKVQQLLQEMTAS
Chain of UniProt Q9Y2K2 (whole entry, looked up): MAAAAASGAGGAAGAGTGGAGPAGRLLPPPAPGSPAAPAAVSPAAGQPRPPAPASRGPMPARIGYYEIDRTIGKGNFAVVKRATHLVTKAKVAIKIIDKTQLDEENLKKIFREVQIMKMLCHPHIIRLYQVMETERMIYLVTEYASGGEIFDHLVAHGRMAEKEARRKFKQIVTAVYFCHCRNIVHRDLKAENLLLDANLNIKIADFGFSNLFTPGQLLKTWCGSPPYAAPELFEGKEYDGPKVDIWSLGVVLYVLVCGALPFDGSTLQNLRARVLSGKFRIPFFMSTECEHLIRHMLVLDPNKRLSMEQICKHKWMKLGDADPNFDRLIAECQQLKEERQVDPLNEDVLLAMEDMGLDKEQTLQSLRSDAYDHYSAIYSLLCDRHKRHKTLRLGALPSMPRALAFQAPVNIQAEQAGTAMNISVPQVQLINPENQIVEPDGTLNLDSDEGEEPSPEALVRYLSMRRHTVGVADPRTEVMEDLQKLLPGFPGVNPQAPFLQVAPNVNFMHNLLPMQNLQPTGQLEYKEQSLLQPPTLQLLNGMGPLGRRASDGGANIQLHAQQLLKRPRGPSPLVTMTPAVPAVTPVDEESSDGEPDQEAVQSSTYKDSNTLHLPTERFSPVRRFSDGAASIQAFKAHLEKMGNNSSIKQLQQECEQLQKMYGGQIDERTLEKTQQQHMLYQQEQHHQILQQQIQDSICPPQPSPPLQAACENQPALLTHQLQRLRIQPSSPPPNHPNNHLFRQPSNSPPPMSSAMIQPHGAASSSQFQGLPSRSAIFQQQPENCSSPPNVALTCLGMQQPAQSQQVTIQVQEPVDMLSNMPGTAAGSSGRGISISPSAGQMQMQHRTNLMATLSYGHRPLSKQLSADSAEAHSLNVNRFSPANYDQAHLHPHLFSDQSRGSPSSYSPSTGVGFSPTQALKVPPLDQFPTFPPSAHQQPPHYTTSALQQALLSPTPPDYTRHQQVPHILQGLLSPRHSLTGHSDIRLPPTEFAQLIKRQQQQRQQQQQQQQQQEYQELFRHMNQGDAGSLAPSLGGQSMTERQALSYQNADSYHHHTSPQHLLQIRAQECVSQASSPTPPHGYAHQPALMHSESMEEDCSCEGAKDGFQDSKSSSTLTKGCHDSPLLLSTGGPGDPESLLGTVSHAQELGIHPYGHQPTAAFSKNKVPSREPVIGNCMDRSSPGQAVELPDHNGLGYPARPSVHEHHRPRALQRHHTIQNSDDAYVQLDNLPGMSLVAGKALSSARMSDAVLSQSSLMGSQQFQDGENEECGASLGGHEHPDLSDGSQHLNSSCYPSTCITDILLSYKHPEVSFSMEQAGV
Chain of UniProt Q8TD19 (whole entry, looked up): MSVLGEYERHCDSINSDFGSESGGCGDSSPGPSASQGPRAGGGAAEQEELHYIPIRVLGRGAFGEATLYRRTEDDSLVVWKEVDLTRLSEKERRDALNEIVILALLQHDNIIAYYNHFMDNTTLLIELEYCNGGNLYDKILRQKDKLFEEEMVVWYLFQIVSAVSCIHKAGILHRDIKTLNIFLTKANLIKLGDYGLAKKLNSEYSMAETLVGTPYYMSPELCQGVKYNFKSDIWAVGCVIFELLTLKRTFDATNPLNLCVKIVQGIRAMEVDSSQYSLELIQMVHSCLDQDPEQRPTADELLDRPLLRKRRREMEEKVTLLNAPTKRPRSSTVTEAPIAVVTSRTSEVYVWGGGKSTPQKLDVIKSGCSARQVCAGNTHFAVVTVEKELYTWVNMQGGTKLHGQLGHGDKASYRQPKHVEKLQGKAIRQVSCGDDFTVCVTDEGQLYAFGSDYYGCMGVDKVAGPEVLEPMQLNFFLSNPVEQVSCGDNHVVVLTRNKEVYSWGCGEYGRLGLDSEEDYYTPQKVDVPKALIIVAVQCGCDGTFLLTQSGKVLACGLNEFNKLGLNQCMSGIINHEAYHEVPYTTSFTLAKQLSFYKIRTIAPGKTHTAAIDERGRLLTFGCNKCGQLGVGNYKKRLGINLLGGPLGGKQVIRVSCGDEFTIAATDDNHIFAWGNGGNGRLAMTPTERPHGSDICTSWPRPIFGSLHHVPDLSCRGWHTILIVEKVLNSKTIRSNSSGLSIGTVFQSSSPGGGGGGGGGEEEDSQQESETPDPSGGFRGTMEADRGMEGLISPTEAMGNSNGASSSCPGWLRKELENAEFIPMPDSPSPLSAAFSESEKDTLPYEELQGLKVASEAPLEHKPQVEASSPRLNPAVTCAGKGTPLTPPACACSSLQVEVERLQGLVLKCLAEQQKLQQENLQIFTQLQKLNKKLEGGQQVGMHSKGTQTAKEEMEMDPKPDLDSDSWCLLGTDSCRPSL
Chain of UniProt P54646 (whole entry, looked up): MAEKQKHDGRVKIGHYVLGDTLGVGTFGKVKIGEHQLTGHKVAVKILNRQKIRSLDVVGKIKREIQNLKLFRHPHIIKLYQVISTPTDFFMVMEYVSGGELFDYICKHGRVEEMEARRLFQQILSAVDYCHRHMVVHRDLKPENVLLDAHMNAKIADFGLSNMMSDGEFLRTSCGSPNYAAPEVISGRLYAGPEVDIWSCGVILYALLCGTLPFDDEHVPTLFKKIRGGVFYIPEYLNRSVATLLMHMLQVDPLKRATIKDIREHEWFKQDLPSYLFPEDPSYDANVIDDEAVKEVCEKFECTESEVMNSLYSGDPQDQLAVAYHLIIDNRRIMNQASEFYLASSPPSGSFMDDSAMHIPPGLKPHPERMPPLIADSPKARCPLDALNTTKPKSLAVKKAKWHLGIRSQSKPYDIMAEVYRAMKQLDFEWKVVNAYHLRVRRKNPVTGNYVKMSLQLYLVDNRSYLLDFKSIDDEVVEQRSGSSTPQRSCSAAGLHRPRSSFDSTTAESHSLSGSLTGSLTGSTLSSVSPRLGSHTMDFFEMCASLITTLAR
Chain of UniProt Q7KZI7 (whole entry, looked up): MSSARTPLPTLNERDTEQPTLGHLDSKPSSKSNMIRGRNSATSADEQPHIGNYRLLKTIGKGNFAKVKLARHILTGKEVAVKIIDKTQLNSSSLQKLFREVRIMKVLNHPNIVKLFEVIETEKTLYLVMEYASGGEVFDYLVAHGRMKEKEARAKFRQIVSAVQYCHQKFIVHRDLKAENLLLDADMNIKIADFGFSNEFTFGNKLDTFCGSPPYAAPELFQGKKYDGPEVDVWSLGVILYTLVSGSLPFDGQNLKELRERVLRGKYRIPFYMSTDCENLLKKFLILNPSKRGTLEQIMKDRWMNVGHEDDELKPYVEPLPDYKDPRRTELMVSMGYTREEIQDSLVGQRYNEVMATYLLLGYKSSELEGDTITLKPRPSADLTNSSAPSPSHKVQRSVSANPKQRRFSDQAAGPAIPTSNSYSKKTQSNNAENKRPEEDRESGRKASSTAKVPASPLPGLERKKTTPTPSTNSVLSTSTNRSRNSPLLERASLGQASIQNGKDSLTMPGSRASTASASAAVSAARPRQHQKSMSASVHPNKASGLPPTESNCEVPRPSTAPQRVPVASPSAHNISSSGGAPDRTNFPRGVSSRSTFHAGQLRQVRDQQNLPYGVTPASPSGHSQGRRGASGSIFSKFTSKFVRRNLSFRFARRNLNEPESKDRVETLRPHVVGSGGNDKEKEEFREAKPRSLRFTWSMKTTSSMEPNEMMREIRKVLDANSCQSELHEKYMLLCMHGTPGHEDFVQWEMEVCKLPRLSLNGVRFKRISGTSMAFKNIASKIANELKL

Study 1
Target: RING finger protein unkempt homolog, zinc fingers 1-6, GST-SBP tag (UNK, Homo sapiens, UniProt Q9C0B0, residues 30-357)
Technique: RNA Bind-n-Seq
Molecule type: RNA
Medium: in vitro
Concentration: not given
Setting: RNA with constant flanks, human-mouse chimeric sites, ends assumed
Reference: input RNA pool
Direction: higher = stronger binding
Measurement: bound/input enrichment
Constant ends, left off below: GGGAGUUCUACAGUCCGACGAUC … CAACAGAGGAUUGAGCAUCA
Construct (chain): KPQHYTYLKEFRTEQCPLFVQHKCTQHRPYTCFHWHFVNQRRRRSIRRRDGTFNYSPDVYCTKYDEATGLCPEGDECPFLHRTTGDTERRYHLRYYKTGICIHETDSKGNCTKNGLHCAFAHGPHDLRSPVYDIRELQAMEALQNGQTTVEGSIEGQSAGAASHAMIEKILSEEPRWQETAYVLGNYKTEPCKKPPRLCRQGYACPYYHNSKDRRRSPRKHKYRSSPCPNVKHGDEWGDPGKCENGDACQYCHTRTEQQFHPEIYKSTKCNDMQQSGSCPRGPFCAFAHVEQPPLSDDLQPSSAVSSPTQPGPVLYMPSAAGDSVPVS
Sequence = GGCUGCUGGUGACUGUCCUGGAGUGGCUGGAGUUCCCGCCGGAGCGCGGCCAGACUAAUUUUAGAAAAUGCCAAGUAGGAAAUUUGCUGAGGGUGAAGUGGUCAGAGGUCGAUGGCCUGG; value = 6.1 ratio
Sequence = GGCCUGGGACCGUCCUGGGCUAGUACAAAUAGCGGCAUGGAGGCUCAGAGAGGAAAGUUGUUAGUGGGAGGCAGUGGUAGAGGCCGUCAUGUACGGUCCUUUACUCGAUAGAUGUGUUCU; value = 0.63 ratio
Sequence = AGUACUGACUCAGGCGGAUUUUGCAACACCAAGCUCACAGCAGCAGCAUCUUAGUCACAGUAGGGUAGCUUUAGGGCUCUGUGGCCAGGGUUUUAUUCACAUGCAGGUUUGGAAAAUGUA; value = 0.593 ratio
Sequence = GCUCUUGGGAAUGUAAUAAGUGCCUUGGGGGACAAGAGCAAGAGAGCCACACAUGUCCCUUACAGAGACUCUAAGCUGACAAGACUCUUGCAGGAUUCCCUUGGGGGUAACAGCCAAACC; value = 0.116 ratio
Sequence = GUGCCCUUCUCGCUGCUCCUGCGGGGCAGCUGGGAACCAUUCCGGGACGACUGGUACGCACACAGCCGCCUCUUCGAUCAAGCUUUCGGGGUGCCCCGGUUGCCCGAUGAGUGGUCGCAG; value = 0.0755 ratio
Sequence = GAGCCAAGCCGGCAGUUUGUAAAGGACUCAAUUCGGCUGGUUAAAAGAUGCACCAAACCUGAUAGAAAAGAAUUCCAGAAGAUUGCCAUGGCUACAGCUAUAGGAUUUGCUAUCAUGGGA; value = 0.222 ratio
Sequence = AAAGUGAUGACUAUGUUUGUACAGCGACAGGUAUUUUCGGAGAGCAAAGAUGAGAUUGCGUUAGUCCUGUUUGGUACAGAUGGCACUGAUAAUGCCCUUGCUGGCAAGGACCAGUAUCAG; value = 0.188 ratio
Sequence = CGGAGCCCUCCUCUCCCACAGGCCCAAGAUGUGACCCACCAGUGCCUUUUGUCUUCCCGUUAGCUUUGUCAAUCACGCCUGUCCUCUCACGCCCACACCAAGUGCCCAAAGUGGGGAGGG; value = 9.2 ratio

Study 2
Target: Centromere-binding protein 1, full length, N-terminal tag (CBF1, Saccharomyces cerevisiae, UniProt P17106, residues 1-351)
Chain of UniProt P17106 (whole entry, looked up): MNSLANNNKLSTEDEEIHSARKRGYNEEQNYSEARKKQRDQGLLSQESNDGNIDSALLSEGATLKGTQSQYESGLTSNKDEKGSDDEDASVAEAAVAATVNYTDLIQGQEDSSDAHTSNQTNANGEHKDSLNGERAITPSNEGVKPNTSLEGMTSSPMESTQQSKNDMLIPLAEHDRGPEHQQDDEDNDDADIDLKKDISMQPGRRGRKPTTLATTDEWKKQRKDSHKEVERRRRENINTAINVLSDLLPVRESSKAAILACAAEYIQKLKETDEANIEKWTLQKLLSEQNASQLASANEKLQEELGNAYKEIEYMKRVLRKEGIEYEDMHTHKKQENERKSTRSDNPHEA
Technique: protein-binding microarray
Molecule type: double-stranded DNA, one strand shown
Medium: in vitro
Concentration: 0.8 µM
Setting: whole 60-bp probe, no competitor
Direction: higher = stronger binding
Measurement: fluorescence intensity
Constant ends, left off below: … GTCTTGATTCGCTTGACGCTGCTG
Sequence = CCTAACTACTATAATGGTGATGAATAGCTTCGTACA; value = 497 a.u.
Sequence = CTAAGACCCTTGCAGCACGTTTTTTTCAGGCTCTTC; value = 723 a.u.
Sequence = CTATAAGCGATTAGCCACACCACCCACTGTACGTTC; value = 574 a.u.
Sequence = TGTACGAAGCTATCTAGCGTGCGTATAGTAGTTAGG; value = 523 a.u.
Sequence = GAAGAATGTAAGCGTGACATAACTAATTACATGTAG; value = 1150 a.u.
Sequence = TGTACGAAGCTATGACTTGTGATTATAGTAGTTAGG; value = 557 a.u.
Sequence = GAATATTAAATAAACATCAGAACACATTGAGGATAG; value = 563 a.u.
Sequence = GAAAAGAAAATTCAGCATGTGCGAAGGAAGGTATAG; value = 707 a.u.

Study 3
Structure (SMILES): CSc1cccnc1N1CCN(Cc2nc3ccccc3[nH]2)CC1
Effect on: cell-free assay
Technique: competition with immobilised ligand
Concentration: 1 µM
Measurement: remaining binding
target = NEK9 (Homo sapiens, UniProt Q8TD19); value = 100%
target = MAPK9 (Homo sapiens, UniProt P45984); value = 68%
target = WNK2 (Homo sapiens, UniProt Q9Y3S1); value = 100%
target = MAP4K4 (Homo sapiens, UniProt O95819); value = 95%
target = IRAK4 (Homo sapiens, UniProt Q9NWZ3); value = 74%
target = Tyrosine-protein kinase ABL1, non-phosphorylated (ABL1, Homo sapiens, UniProt P00519, Q252H); value = 67%
target = PRKAA2 (Homo sapiens, UniProt P54646); value = 100%
target = MAP3K9 (Homo sapiens, UniProt P80192); value = 100%
target = MARK2 (Homo sapiens, UniProt Q7KZI7); value = 100%
target = SIK3 (Homo sapiens, UniProt Q9Y2K2); value = 100%
target = CDK3 (Homo sapiens, UniProt Q00526); value = 100%
target = IRAK1 (Homo sapiens, UniProt P51617); value = 73%
target = Ribosomal protein S6 kinase alpha-1, C-terminal kinase domain (RPS6KA1, Homo sapiens, UniProt Q15418); value = 100%
target = MAPK10 (Homo sapiens, UniProt P53779); value = 66%

Single results of other studies
Effect on: enzyme activity
Action: inhibitor
Concentration: 0.5 µM
Reference: control
CAMKK2: Calcium/calmodulin-dependent protein kinase kinase 2 (CAMKK2, Homo sapiens, UniProt Q96RR4)
Chain of UniProt Q96RR4 (whole entry, looked up): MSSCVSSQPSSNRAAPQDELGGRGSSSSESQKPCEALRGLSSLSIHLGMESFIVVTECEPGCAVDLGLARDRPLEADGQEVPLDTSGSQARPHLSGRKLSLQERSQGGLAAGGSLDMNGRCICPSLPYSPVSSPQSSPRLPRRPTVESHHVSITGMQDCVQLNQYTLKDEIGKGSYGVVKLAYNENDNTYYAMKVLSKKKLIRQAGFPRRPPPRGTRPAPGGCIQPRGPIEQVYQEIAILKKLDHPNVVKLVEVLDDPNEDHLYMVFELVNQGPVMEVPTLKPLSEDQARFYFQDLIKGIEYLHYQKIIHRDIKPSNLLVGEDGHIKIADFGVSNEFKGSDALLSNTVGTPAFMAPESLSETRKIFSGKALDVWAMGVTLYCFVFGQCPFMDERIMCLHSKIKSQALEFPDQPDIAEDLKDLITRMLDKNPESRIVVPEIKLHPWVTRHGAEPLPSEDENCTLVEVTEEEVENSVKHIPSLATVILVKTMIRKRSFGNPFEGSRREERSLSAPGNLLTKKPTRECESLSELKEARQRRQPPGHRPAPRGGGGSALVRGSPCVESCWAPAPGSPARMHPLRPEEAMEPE
Compound = COc1cc2nccc(Oc3ccc(NC(=S)NC(=O)c4ccccc4C)cc3)c2cc1OC; target = TGFBR1 (Homo sapiens, UniProt P36897); remaining activity = 98%
Compound = OCC(O)CCON=C1C(c2c(O)[nH]c3ccccc23)=Nc2ccccc21 (stereo not shown); target = CAMKK2; remaining activity = 26%
Compound = Cn1sc(=O)n(Cc2ccccc2)c1=O; target = CAMKK2; remaining activity = 95.2%
Compound = Cc1cccc(-c2[nH]c(C(C)(C)C)nc2-c2ccc3c(c2)OCO3)n1; target = CAMKK2; remaining activity = 96%

Repeated from above (study 2):
Sequence = CTAAGACCCTTGCAGCACGTTTTTTTCAGGCTCTTC; value = 723 a.u.
Sequence = CTATAAGCGATTAGCCACACCACCCACTGTACGTTC; value = 574 a.u.
Sequence = TGTACGAAGCTATCTAGCGTGCGTATAGTAGTTAGG; value = 523 a.u.
Sequence = GAAGAATGTAAGCGTGACATAACTAATTACATGTAG; value = 1150 a.u.
